Assay results from different studies.
Values joined by “and” are separate records of one study, mostly repeats; a detail may differ. Numbers after ± are the reported error.

COc1ccccc1-c1n[nH]c2nc(N[C@H]3CC[C@H](NS(=O)(=O)CC(C)C)CC3)ncc12  relative abundance (bead binding, competition bead pull-down, item: LINJ.29.0860; Leishmania donovani extract; 10 µM; relative to: vehicle): 0.96
CCOC(=O)C1(Cc2ccc(OC)cc2)Oc2cc(F)ccc2N(Cc2ccc(OC)cc2)C1=O (stereo not drawn)  inhibition (Arabidopsis thaliana; stem length, petri dish germination; Col-0, 1/2 MS medium; 200 µg/mL, 7 days, 22 °C, dark): 65.4%
Cc1ccc(N2CC3CC(C2)N3C)cc1C(=O)NC1(c2ccc3c4c(cccc24)C(=O)N3C)CC1  inhibition (human coronavirus 229E; viral replication; Huh-7; 50 µM): 100%
CCOC(=O)C1(Cc2ccccc2)Oc2cc(F)ccc2N(Cc2ccccc2)C1=O (stereo not drawn)  inhibition (HaCaT; cell growth or viability, CCK-8; 0.78 µM, 72 h): 0%
COc1ccccc1-c1ccncc1C(=O)Nc1nnc(OCc2ccc(Cl)cc2)s1  colony survival (RPE-1 BRCA1 WT parental; 4 µM, average of 2 runs; relative to: untreated): 71.6%
CN1CCN(S(=O)(=O)c2ccc(-c3ccc4ncnc(Nc5ccc(OCc6ccccc6)c(Cl)c5)c4c3)cc2)CC1  EC50 (Plasmodium falciparum; parasite growth, SYBR Green fluorescence; C235 (TM91C235), drug-resistant): 28 nM
C=CCN1C(=O)C(CC=C)(C(=O)OCC)Oc2cc(F)ccc21 (stereo not drawn)  root length inhibition (Arabidopsis thaliana; Col-0, seed germination, dark; 50 µg/mL, 7 days, 22 °C): 91.9%
O=S(=O)(c1ccc(-c2ccc3ncnc(Nc4ccc(OCc5cccc(F)c5)c(Cl)c4)c3c2)cc1)N1CCSCC1  EC50 (Plasmodium falciparum; parasite growth, SYBR Green; D6; blood stage): 460 nM
COc1ccccc1-c1n[nH]c2nc(NC3CCN(C(=O)Cc4ccc(F)cc4F)CC3)ncc12  relative abundance (bead binding, competition bead pull-down, item: LINJ.20.0110; Leishmania donovani axenic amastigote extract; 10 µM; relative to: vehicle): 1
CC(C)(C)C(=O)OCOP(=O)(OCOC(=O)C(C)(C)C)C1CCCN(O)C1=O (stereo not drawn)  log LC50 (SF-295): > -4 log M
NNC(=O)c1ccccc1  normalised absorbance (hydrazine ligation kinetics, absorbance; concentration not given, 50 s, together with: 2-formylphenylboronic acid): 0.798
Cc1cc(C(=O)Nc2nc3cccc(C)c3n2[C@H]2CCCCN(C(=O)/C=C/CN(C)C)C2)ccn1  survival (Trypanosoma brucei brucei; 2T1 wild type; 5 x EC50): 0.142% and 0.117% and -0.088% and -0.101%
CN1CCN(S(=O)(=O)c2ccc(-c3ccc4ncnc(Nc5ccccc5)c4c3)cc2)CC1  EC50 (Plasmodium falciparum; parasite growth, SYBR Green; D6; blood stage): 700 nM
CCCC/C=C/C(=O)N[C@@H](Cc1csc2ccccc12)C(=O)N[C@H]1COC(=O)[C@@H]2C[C@@H](C)CN2C(=O)[C@H](C)NC(=O)[C@@H]2CCCCN2C(=O)[C@@H]2CCCN2C1=O  RNA release (human coronavirus 229E; Huh-7 CLPP knock-out 1; concentration not given, unit not given; relative to: DMSO): 0.0546 and 0.0703 and 0.0383
O=C(O)c1ccc(-c2nc(-c3ccccc3Cl)c3sccn23)cc1  CD41-positive cell number (CD34+ hematopoietic stem cells; 10 µM, day 7, without TPO): 642000 and 799000
O=C1NC2(CC2)COc2ncc(F)cc2[C@H]2COCCN2c2ccn3ncc1c3n2  organ weight (Sprague-Dawley rat, female, kidneys; oral, 5 mg/kg/day, 4 weeks): 2.18 ± 0.167 g
CN1CCN(S(=O)(=O)c2ccc(-c3ccc4ncnc(Nc5ccc(Cl)cc5)c4c3)cc2)CC1  EC50 (Plasmodium falciparum; parasite growth, SYBR Green fluorescence; W2, drug-resistant): 390 nM
C#CCN1C(=O)C(CC#C)(C(=O)OCC)Oc2ccccc21 (stereo not drawn)  mRNA level (Arabidopsis thaliana; item: KARI; Col-0, leaves; concentration not given, 72 h, 30-day-old plants; relative to: water-treated): ~4 fold
Fc1cccc(COc2ccc(Nc3ncnc4ccc(-c5cccc(-n6cccn6)c5)cc34)cc2Cl)c1  EC50 (Plasmodium falciparum; parasite growth, SYBR Green fluorescence; W2, drug-resistant): > 15000 nM
CCOC(=O)C1(Cc2cccc(C(C)C)c2)Oc2cc(F)ccc2N(Cc2cccc(C(C)C)c2)C1=O (stereo not drawn)  inhibition (Arabidopsis thaliana; stem length, petri dish germination; Col-0, 1/2 MS medium; 200 µg/mL, 7 days, 22 °C, dark): 29.4%
CC(C)C[C@@H]1NC(=O)[C@@H](Cc2c[nH]c3ccccc23)NC(=O)[C@H](CCCNC(=N)N)NC(=O)[C@@H](CCC(=O)O)NC(=O)[C@H](CCC(N)=O)NC(=O)[C@@H](CCC(=O)O)NC(=O)[C@H](CCCNC(=N)N)NC(=O)[C@@H](Cc2c[nH]c3ccccc23)NC1=O  cytokine level (item: IL13; LDLr-/- mouse on Western diet, liver; dose not given, 4 weeks): 7.3 ± 5.9 pg/g tissue
CC(C)CC(C(=O)N1CC2(CC1C#N)C(=O)Nc1ccccc12)N(C)C(=O)c1cc2c(F)cc(F)c(F)c2[nH]1 (stereo not drawn)  inhibition (Betacoronavirus 1; viral replication; HCT-8, OC43; 0.125 µM): 89%
Cc1cc(Oc2nc(N3CC[C@@H](c4ccncc4)C3)ncc2F)[nH]n1  normalised growth (Mycobacterium tuberculosis; THP-1, H37Rv non-replicating; 0.9489 µM, day 4 plus 1): 51.2% and 44.8%
Cc1ccc(NS(=O)(=O)c2c(C(=O)N3CCCCCC3)c(C)n(C)c2C)c(Cl)c1  infection (Fowlpox virus; viral infection; CEF; 0.412 µM; relative to: untreated): 110% and 82% and 101%
CCOC(=O)C1(C)Oc2cc(F)ccc2N(C)C1=O (stereo not drawn)  inhibition (Arabidopsis thaliana; stem length, petri dish germination; Col-0, 1/2 MS medium; 200 µg/mL, 7 days, 22 °C, dark): 100%
O=S(=O)(c1ccc(-c2ccc3ncnc(Nc4ccc(O)c(Cl)c4)c3c2)cc1)N1CCOCC1  EC50 (Plasmodium falciparum; parasite growth, SYBR Green; D6; blood stage): 12000 nM
CN1C(=O)C(C2C3=C(CC(C)(C)CC3=O)Oc3ccc([N+](=O)[O-])cc32)C(=O)N(C)C1=O (stereo not drawn)  mRNA level (3T3-L1 adipocytes; qPCR, item: FAS; IC20, 14 days; relative to: untreated mature adipocytes): decreased

Excerpt of the above:
CC(C)(C)C(=O)OCOP(=O)(OCOC(=O)C(C)(C)C)C1CCCN(O)C1=O (stereo not drawn)  log LC50 (SF-295): > -4 log M
NNC(=O)c1ccccc1  normalised absorbance (hydrazine ligation kinetics, absorbance; concentration not given, 50 s, together with: 2-formylphenylboronic acid): 0.798
Cc1cc(C(=O)Nc2nc3cccc(C)c3n2[C@H]2CCCCN(C(=O)/C=C/CN(C)C)C2)ccn1  survival (Trypanosoma brucei brucei; 2T1 wild type; 5 x EC50): 0.142% and 0.117% and -0.088% and -0.101%
CN1CCN(S(=O)(=O)c2ccc(-c3ccc4ncnc(Nc5ccccc5)c4c3)cc2)CC1  EC50 (Plasmodium falciparum; parasite growth, SYBR Green; D6; blood stage): 700 nM
